Measurements pooled from the literature.
Every numbered part comes from another study and shows a few of its results, in no order. Changes are numbered by the printed parent chain.

Study 1
Target: Histone acetyltransferase KAT6A, both winged helices, GST fusion (KAT6A, Homo sapiens, UniProt Q92794, residues 1-181)
Method: protein binding microarray
Molecule type: double-stranded DNA, one strand shown
Sample: in vitro
Tested at: not given
Notes: 8-mer, flanks averaged, mean of 2 arrays, mostly near background
Relative to: not given
Direction: higher = stronger binding
Construct (chain): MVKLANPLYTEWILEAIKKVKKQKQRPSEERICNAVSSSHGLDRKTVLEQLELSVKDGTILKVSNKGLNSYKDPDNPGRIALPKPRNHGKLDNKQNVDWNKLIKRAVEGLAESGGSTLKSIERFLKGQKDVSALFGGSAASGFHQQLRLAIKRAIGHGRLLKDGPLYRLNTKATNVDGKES
Oligonucleotide	E-score
GGGCAAAA	0.0845
CACCCCAC	-0.118
CCTATATC	-0.0175
AGTTCCTC	-0.0216
CCCCTTCC	-0.12

Study 2
Target: CCNF, cyclin fold, Cln2 fusion (human)
Method: yeast growth competition, sequencing
Sample: yeast
Notes: strong parent motif
Relative to: not given
Direction: higher = stronger binding
Parent: RBL2 docking peptide (human); STTRRRLFVENDS
Change	normalised enrichment score
V9C	9.37
S13D	8.91
V9F	9.74

Study 3
Target: Ras GTPase-activating protein-binding protein 1, full length (G3BP1, Homo sapiens, UniProt Q13283)
UniProt Q13283, sequence (whole entry, looked up): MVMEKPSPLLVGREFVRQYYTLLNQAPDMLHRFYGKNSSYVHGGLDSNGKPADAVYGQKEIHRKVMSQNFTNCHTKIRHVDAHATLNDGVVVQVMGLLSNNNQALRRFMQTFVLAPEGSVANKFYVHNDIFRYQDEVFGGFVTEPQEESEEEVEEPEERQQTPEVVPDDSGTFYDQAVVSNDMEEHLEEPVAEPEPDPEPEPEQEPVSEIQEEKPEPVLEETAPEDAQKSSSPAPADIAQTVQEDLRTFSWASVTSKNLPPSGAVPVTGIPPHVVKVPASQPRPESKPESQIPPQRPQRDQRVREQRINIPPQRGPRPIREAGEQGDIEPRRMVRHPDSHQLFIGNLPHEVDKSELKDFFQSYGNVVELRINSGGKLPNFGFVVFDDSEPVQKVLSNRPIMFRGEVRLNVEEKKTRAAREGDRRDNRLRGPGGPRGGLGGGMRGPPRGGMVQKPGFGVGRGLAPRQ
Method: RNA Bind-n-Seq
Molecule type: RNA
Sample: in vitro
Tested at: 200 nM
Notes: whole 134-nt RNA, ends assumed
Added: 150 mM KCl
Relative to: input library
Direction: higher = stronger binding
Oligonucleotide	log2 enrichment
GGGAGUUCUACAGUCCGACGAUCAAGUCCUGUGCUACACAUCGUAUGUACCGAAUCGGGGCCCCGGCCCCGGGGCCCCGGAAAGUAUUAUGUUACGCCGUUCGGAUCUGCACUUGGAAUUCUCGGGUGUCAAGG	-0.915
GGGAGUUCUACAGUCCGACGAUCCCUGUGCUACACAUCGUAUGUACCGAAUCGGGCCCCCCCGGCCCCCCCGGGCCCCCCCGGAAAGUAUUAUGUUACGCCGUUCGGAUCUGCUGGAAUUCUCGGGUGUCAAGG	0.0746
GGGAGUUCUACAGUCCGACGAUCUUCUGACUCAGAAUGUGCCAAAAAGGCUUUGGAACAACUUAAUGGAUUUGAACUAGCAGGAAGACCAAUGAAAGUUGGUCAUGUUACUGAUGGAAUUCUCGGGUGUCAAGG	-1.45
GGGAGUUCUACAGUCCGACGAUCUCCUGUGCUACACAUCGUAUGUACCGAAUCGGGGUUUUUUUGGGGUGGGGUUUUUGGGGAAAGUAUUAUGUUACGCCGUUCGGAUCUGCAUGGAAUUCUCGGGUGUCAAGG	0.704

Other studies, line by line
Molecule	target	assay	system	setting	how to read	measurement	result
PhoQ, residues 284 288 289 292 302 303 SIHMAM	PhoP, residues 12 14 15 18 19 SGWQI (Escherichia coli, UniProt P23836)	Sort-seq, refers to: YFP reporter	E. coli	PhoQ-PhoP variant library, added: 10 µM Mg2+	relative to: high Mg2+ state, higher = stronger signaling	fold induction	6.45

Repeated from above (study 1):
Oligonucleotide	E-score
CCCCTTCC	-0.12
